Measurements of several laboratories.
Lines come from different studies, so protocols differ. ± marks the error that the study gave.

Compound | organism | test | system | setting | IC50
[Cl-].[Cl-].[Ni+2].c1ccc(CN2CCNCCN(Cc3ccccc3)CCNCC2)cc1 | Leishmania donovani | – | THP-1-derived macrophages, intracellular amastigotes | – | > 20 µM
CC(C)[C@H](NC(=O)[C@H](CCCNC(=N)N)NC(=O)[C@H](Cc1ccc2ccccc2c1)NC(=O)[C@H](CCCNC(=N)N)NC(=O)[C@@H](N)CS)C(=O)N1CCC[C@@H]1C(=O)N[C@@H](CC1CCCCC1)C(=O)N[C@@H](Cc1c[nH]cn1)C(=O)N[C@@H](CCCNC(=N)N)C(=O)N[C@@H](Cc1ccc(O)cc1)C(=O)N[C@@H](CCCNC(=N)N)C(=O)N[C@@H](CS)C(N)=O | hepatitis C virus | viral replication, Renilla luciferase reporter | Huh7.5 | 48 h | 0.003 µM
CC(C)(C)CC(C)(C)Nc1c(-c2ccc3c(c2)OCO3)nc2ccccn12 | Leishmania amazonensis | fluorimetry | peritoneal macrophages, RFP | 72 h, intracellular amastigotes | > 100 µM
CC(=O)[O-].F[P-](F)(F)(F)(F)F.[Ni+2].c1ccc(CN2CCN3CCN(CC2)CCN(Cc2ccccc2)CC3)cc1 | Leishmania donovani | – | THP-1-derived macrophages, intracellular amastigotes | – | > 20 µM
CC=C1NC(=O)[C@H](Cc2ccccc2)NC(=O)[C@H](C(C)C)NC(=O)[C@H](Cc2ccccc2)NC(=O)[C@H](CCC(N)=O)NC(=O)[C@H](Cc2c[nH]c3ccccc23)NC(=O)C2CSC[C@@H](C(=O)N[C@@H](CO)C(=O)O)NC(=O)[C@H](CSCC3NC(=O)[C@H]([C@@H](C)CC)NC(=O)C(NC(=O)[C@H](Cc4c[nH]cn4)NC(=O)[C@@H](NC(=O)[C@@H](NC(=O)CNC(=O)[C@H](CO)NC(=O)CNC(=O)CNC(=O)[C@@H](N)CCCCN)C(C)C)[C@@H](C)CC)C(C)SC[C@H](NC(=O)[C@H](CCC(=O)O)NC(=O)[C@H](Cc4c[nH]cn4)NC3=O)C(=O)N[C@@H](CC(N)=O)C(=O)N[C@@H](CCSC)C(=O)N[C@@H](CC(N)=O)C(=O)N2)NC1=O (stereo partly drawn) | Lactococcus lactis | cell growth | HP | – | 0.785 ± 0.019 µM
CC#N.[Cl][Mn-2]([Cl])([Cl])[Cl].[Mn+2].c1ccc(CN2CCCN3CCCN(CCCN(Cc4ccccc4)CC3)CC2)cc1 | Leishmania donovani | – | THP-1-derived macrophages, intracellular amastigotes | – | 1.89 µM
CC(C)[C@@H]1NC(=O)[C@H](CCCNC(=N)N)NC(=O)[C@H](Cc2ccccc2)NC(=O)[C@H](CO)NC(=O)[C@@H](NC(=O)CCCCCNC(=O)CCCCCNC(=O)[C@H](CCCNC(=N)N)NC(=O)CCCCCNC(=O)[C@H](CCCNC(=N)N)NC(=O)CCCCCNC(=O)[C@H](CCCNC(=N)N)NC(=O)CCCCCNC(=O)[C@H](CCCNC(=N)N)NC(=O)CCCCCNC(=O)[C@H](CCCNC(=N)N)NC(=O)CCCCCNC(=O)[C@H](CCCNC(=N)N)NC(=O)CCCCCNC(=O)[C@@H](N)CCCNC(=N)N)CSSC[C@@H](C(N)=O)NC(=O)[C@@H]2CCCN2C(=O)[C@H](Cc2ccc(O)cc2)NC(=O)[C@H](CCC(=O)O)NC(=O)[C@H](Cc2c[nH]cn2)NC(=O)[C@H](CC2CCCCC2)NC(=O)[C@H]2CCCN2C1=O | hepatitis C virus | viral replication, Renilla luciferase reporter | Huh7.5 | 48 h | 0.000452 µM
CC=C1NC(=O)[C@H](Cc2ccccc2)NC(=O)[C@H](C(C)C)NC(=O)[C@H](Cc2c[nH]cn2)NC(=O)[C@H](CCC(N)=O)NC(=O)[C@H](Cc2c[nH]c3ccccc23)NC(=O)C2CSC[C@@H](C(=O)N[C@@H](CO)C(=O)O)NC(=O)[C@H](CSCC3NC(=O)[C@H]([C@@H](C)CC)NC(=O)C(NC(=O)[C@H](Cc4c[nH]cn4)NC(=O)[C@@H](NC(=O)[C@@H](NC(=O)CNC(=O)[C@H](CO)NC(=O)CNC(=O)CNC(=O)[C@@H](N)CCCCN)C(C)C)[C@@H](C)CC)C(C)SC[C@H](NC(=O)[C@H](CCC(=O)O)NC(=O)[C@H](Cc4c[nH]cn4)NC3=O)C(=O)N[C@@H](CCCNC(=N)N)C(=O)N[C@@H](CCSC)C(=O)N[C@@H](CC(N)=O)C(=O)N2)NC1=O (stereo partly drawn) | Lactococcus lactis | cell growth | HP | – | 0.428 ± 0.021 µM
CC[C@H](C)[C@H](NC(=O)CNC(=O)[C@H](CO)NC(=O)[C@H](CC(C)C)NC(=O)[C@@H](N)Cc1ccccc1)C(=O)N[C@H](C(=O)NCC(=O)N[C@@H](CCSC)C(=O)N[C@@H](CC(C)C)C(=O)NCC(=O)N[C@@H](CCCCN)C(=O)N[C@@H](CC(C)C)C(=O)N[C@@H](Cc1ccccc1)C(N)=O)C(C)C | Leishmania mexicana | trypan blue count | promastigotes | – | 6.3 ± 0.85 µM
CC(=O)[O-].CN(C)C=O.F[P-](F)(F)(F)(F)F.[Co+2].c1ccc(CN2CCN3CCCN(CC2)CCN(Cc2ccccc2)CC3)cc1 | Leishmania donovani | parasite growth, resazurin | – | 72 h, promastigote | 20.7 µM
CC1N=C(CCCCCCCCCCC2=CC(CCCCCCCCCCC3=NC(C)C(O)CC3)C3CCCN3C2)CCC1O (stereo not drawn) | Leishmania donovani | – | amastigotes in THP-1 macrophages | – | 1.67 ± 0.23 mg/L
N[C@H]1C[C@@H]1c1ccccc1 (racemic) | human alphaherpesvirus 1 | viral replication | HeLa | – | ~1000 µM
O=C(C1CCN(c2nnnn2-c2ccccc2)CC1)N1CCCc2ccccc21 | Plasmodium falciparum | [3H]hypoxanthine incorporation | Cam3.I | 72 h | 0.79 µM
COc1cc2c(=O)c(C(=O)NCCNCCO)cn(Cc3ccccc3)c2cc1OCc1cccc(Cl)c1 | Leishmania donovani | – | Bob promastigotes | 120 h | > 20 µM
N=C(N)NCCC[C@H](NC(=O)[C@@H]1CSSC[C@H](NC(=O)[C@@H](N)CCCNC(=N)N)C(=O)N[C@@H](CCCNC(=N)N)C(=O)N[C@@H](Cc2ccc3ccccc3c2)C(=O)N[C@@H](CCCNC(=N)N)C(=O)N[C@@H](C2CCCCC2)C(=O)N2CCC[C@@H]2C(=O)N[C@@H](CC2CCCCC2)C(=O)N[C@@H](Cc2c[nH]cn2)C(=O)N[C@@H](CCCNC(=N)N)C(=O)N[C@@H](Cc2ccc(-c3ccccc3)cc2)C(=O)N[C@@H](CCCNC(=N)N)C(=O)N1)C(N)=O | hepatitis C virus | viral replication, Renilla luciferase reporter | Huh7.5 | 48 h | 0.031 µM
Cc1cccc2c1NC(=O)C2=Cc1ccc(-c2cccc(C(=O)N3CCCN(C)CC3)c2)o1 (mixture of isomers) | Ancylostoma ceylanicum | motility | adult worms | 24 h | 7.7 µM
F[P-](F)(F)(F)(F)F.F[P-](F)(F)(F)(F)F.[Cu+2].c1ccc(CN2CCCNCCN(Cc3ccccc3)CCCNCC2)cc1 | Leishmania donovani | parasite growth, resazurin | – | 72 h, amastigote | > 15 µM
CCn1c(-c2ccc(OC)cc2)c(-c2ccc(OC)cc2)n(CC)c1=[Se+][Au-][P+](CC)(CC)CC.Cl | Acinetobacter baumannii | bacterial growth | carbapenem-resistant | 2 h | 20 µM
CC(C)[C@@H]1NC(=O)[C@H](CCCNC(=N)N)NC(=O)[C@H](Cc2ccc3ccccc3c2)NC(=O)[C@H](CCCNC(=N)N)NC(=O)[C@@H](N)CSSC[C@@H](C(N)=O)NC(=O)[C@H](CCCNC(=N)N)NC(=O)[C@H](Cc2ccc(O)cc2)NC(=O)[C@H](CCCNC(=N)N)NC(=O)[C@H](Cc2c[nH]cn2)NC(=O)[C@H](CC2CCCCC2)NC(=O)[C@H]2CCCN2C1=O | hepatitis C virus | viral replication, Renilla luciferase reporter | Huh7.5 | 48 h | 0.000192 µM
COC(=O)C1=CO[C@@H](C)[C@@H]2Cn3ccc4c5ccccc5nc-4c3C[C@H]12 | Plasmodium falciparum | [3H]hypoxanthine incorporation | C2B atovaquone-resistant | 48 h | 1.5 µM
CC(=O)Nc1cc(Nc2cc(NC3CC3)n3ncc(C#N)c3n2)ccc1N(C)Cc1ccccc1 | murine coronavirus (MHV-nLuc) | viral replication, nanoluciferase reporter | DBT | – | > 1 µM

Some of these lines once more:
Compound | organism | test | system | setting | IC50
COc1cc2c(=O)c(C(=O)NCCNCCO)cn(Cc3ccccc3)c2cc1OCc1cccc(Cl)c1 | Leishmania donovani | – | Bob promastigotes | 120 h | > 20 µM
